{"data": "Measurements from different studies", "WWOX Y85W WW2 domain Y85W": "WW domain-containing oxidoreductase, WW2 domain Y85W (WWOX, Homo sapiens, UniProt Q9NZC7, Y85W)", "MAL12": "Alpha-glucosidase MAL12 (MAL12, Saccharomyces cerevisiae S288c, UniProt P53341)", "SCN9A": "Sodium channel protein type 9 subunit alpha (SCN9A, Homo sapiens, UniProt Q15858)", "note": "Protocols differ between the studies behind these lines. ± marks the error that the study gave.", "sequence of UniProt P53341 (whole entry, looked up)": "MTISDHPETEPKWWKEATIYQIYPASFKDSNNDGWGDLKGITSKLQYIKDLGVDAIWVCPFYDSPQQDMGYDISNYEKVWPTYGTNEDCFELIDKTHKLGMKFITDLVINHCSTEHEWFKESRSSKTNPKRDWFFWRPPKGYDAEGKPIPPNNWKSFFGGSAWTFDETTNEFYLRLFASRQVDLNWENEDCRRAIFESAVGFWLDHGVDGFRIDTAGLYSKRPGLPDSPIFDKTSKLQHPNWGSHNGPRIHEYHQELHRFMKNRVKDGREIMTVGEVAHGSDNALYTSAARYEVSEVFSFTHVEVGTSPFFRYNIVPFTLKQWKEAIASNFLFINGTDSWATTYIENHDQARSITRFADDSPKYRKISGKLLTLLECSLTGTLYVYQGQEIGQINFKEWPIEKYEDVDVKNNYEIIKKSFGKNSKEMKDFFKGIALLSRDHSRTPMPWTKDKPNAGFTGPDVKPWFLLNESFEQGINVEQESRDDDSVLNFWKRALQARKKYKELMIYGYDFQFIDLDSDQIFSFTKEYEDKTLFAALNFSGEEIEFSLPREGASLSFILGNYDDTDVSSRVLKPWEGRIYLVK", "sequence of UniProt Q9NZC7 (whole entry, unmodified, looked up)": "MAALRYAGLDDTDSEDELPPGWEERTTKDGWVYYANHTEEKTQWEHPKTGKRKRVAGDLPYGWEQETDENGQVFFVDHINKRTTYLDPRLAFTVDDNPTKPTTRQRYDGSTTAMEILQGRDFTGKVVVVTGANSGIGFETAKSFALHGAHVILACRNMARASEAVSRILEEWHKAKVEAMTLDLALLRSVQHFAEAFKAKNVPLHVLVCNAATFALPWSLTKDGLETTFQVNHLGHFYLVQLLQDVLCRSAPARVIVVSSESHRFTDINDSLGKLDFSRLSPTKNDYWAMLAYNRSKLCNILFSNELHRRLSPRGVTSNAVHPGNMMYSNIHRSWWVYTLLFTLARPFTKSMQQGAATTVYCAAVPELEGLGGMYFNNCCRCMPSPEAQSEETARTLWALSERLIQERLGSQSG", "sequence of UniProt Q62645 (whole entry, looked up)": "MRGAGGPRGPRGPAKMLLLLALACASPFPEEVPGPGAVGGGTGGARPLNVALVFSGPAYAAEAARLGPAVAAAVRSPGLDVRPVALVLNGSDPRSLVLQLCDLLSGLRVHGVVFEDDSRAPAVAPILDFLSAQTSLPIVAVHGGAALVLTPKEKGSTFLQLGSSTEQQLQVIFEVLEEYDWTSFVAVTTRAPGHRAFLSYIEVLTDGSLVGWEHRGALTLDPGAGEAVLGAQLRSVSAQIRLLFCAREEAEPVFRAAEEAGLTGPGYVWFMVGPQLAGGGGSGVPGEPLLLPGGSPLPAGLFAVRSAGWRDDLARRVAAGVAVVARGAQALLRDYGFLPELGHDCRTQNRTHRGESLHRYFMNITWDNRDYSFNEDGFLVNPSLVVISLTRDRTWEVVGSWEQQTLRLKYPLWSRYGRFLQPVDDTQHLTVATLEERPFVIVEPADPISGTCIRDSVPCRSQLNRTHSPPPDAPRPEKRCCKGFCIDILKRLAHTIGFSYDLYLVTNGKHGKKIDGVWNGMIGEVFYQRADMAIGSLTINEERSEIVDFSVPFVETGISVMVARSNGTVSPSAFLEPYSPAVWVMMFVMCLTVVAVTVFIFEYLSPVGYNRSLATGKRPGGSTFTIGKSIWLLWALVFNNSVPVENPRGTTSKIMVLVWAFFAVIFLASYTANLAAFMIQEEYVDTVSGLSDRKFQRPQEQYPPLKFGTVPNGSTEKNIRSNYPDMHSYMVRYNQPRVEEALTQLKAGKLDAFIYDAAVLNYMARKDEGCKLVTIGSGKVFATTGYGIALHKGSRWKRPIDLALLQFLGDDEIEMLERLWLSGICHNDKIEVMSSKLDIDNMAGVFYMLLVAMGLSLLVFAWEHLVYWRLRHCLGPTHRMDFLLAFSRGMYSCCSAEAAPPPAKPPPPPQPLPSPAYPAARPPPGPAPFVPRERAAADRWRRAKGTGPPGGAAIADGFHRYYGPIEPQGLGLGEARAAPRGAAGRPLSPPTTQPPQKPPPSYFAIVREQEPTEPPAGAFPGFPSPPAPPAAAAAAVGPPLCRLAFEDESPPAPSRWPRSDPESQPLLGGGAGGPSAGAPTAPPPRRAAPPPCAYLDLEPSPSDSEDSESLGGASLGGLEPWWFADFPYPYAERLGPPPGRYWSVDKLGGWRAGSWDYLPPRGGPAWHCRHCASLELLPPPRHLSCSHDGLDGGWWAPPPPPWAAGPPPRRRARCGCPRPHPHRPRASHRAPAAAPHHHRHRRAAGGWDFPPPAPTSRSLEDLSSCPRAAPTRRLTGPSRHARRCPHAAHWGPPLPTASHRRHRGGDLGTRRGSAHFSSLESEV", "sequence of UniProt Q15858 (whole entry, looked up)": "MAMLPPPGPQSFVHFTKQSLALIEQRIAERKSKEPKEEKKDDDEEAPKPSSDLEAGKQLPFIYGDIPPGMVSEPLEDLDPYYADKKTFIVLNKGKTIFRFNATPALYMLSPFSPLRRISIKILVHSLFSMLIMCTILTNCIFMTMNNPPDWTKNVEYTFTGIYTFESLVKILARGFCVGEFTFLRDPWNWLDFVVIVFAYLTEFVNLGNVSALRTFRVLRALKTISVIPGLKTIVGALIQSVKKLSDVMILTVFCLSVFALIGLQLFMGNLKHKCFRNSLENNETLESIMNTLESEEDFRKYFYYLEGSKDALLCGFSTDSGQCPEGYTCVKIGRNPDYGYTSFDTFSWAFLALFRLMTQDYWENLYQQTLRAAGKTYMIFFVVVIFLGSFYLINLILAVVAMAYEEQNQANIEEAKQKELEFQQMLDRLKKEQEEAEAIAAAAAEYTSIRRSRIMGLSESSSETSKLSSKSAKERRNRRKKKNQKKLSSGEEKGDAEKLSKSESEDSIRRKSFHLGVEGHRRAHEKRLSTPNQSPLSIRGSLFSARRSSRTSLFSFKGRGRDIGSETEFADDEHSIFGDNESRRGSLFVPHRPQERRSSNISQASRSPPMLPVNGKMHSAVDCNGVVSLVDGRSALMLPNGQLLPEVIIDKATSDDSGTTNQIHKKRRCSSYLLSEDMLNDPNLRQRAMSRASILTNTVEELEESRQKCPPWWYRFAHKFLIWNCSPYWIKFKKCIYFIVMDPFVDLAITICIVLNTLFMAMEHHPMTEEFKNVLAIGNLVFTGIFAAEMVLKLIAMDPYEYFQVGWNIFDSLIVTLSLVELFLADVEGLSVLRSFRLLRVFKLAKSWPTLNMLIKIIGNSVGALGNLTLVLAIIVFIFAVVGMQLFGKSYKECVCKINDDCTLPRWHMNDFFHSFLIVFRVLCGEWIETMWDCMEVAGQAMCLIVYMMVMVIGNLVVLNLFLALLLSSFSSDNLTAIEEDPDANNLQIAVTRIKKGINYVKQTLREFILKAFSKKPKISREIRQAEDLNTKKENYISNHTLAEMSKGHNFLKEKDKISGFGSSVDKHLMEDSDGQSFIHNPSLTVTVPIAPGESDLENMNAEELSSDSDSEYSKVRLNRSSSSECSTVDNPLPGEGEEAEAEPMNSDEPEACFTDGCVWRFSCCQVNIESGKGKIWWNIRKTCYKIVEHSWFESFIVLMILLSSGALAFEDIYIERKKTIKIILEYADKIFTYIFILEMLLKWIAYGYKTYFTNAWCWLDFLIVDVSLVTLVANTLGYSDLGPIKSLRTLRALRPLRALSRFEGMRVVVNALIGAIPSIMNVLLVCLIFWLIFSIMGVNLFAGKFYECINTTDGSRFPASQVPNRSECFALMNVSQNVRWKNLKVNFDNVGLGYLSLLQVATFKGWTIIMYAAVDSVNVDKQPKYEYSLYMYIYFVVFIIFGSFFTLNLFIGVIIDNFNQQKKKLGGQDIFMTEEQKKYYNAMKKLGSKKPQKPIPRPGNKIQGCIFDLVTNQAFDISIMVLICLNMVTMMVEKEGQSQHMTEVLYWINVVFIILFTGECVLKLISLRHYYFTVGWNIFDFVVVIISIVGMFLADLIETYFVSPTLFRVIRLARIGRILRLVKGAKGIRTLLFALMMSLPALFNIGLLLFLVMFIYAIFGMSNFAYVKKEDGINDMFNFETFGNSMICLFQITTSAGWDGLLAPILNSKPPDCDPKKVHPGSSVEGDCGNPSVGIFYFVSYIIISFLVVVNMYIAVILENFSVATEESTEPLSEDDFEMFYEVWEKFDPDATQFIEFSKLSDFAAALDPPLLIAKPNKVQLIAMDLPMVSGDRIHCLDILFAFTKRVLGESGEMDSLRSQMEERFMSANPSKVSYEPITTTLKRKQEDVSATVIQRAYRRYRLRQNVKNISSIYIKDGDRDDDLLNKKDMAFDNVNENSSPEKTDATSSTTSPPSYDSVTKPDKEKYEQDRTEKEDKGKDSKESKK", "sequence of UniProt P69905 (whole entry, looked up)": "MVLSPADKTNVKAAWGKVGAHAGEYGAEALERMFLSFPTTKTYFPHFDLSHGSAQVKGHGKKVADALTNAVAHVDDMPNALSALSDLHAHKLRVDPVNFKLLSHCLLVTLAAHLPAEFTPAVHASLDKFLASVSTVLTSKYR", "sequence of UniProt P14416 (whole entry, looked up)": "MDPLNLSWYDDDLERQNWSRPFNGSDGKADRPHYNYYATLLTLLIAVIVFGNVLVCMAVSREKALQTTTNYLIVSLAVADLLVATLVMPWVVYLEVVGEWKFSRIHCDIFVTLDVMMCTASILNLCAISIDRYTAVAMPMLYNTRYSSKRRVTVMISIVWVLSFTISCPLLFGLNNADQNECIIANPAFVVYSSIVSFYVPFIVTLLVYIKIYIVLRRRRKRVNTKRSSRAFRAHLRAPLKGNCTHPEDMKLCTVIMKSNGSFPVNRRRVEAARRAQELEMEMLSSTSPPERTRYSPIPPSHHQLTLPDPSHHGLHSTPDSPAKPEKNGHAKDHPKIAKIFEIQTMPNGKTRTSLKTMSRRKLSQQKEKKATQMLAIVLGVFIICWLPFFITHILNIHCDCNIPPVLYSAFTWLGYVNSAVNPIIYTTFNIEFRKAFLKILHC"}
{"Molecule": "O=C(O)[C@@H]1CCC=N1", "target": "putA (Escherichia coli, UniProt P09546)", "assay": "stopped-flow", "setting": "20 °C, proline-reduced enzyme", "measurement": "Kd", "result": "> 3.3 mM"}
{"Molecule": "CCCCCCCCC(=O)N(C)[C@H]1CNC1=O", "target": "NAAA (Homo sapiens, UniProt Q02083)", "assay": "enzyme activity, inhibitor, fluorogenic PAMCA hydrolysis", "setting": "pH 4.5, together with: 5 µM PAMCA", "measurement": "IC50", "result": "inactive"}
{"Molecule": "CSCC[C@H](NC(=O)[C@@H]1CCCN1C(=O)[C@@H](NC(=O)[C@H](Cc1ccc(O)cc1)NC(=O)[C@H](C)NC(=O)[C@@H]1CCCN1C(=O)[C@@H]1CCCN1C(=O)[C@@H]1CCCN1C(=O)[C@H](CO)NC(=O)[C@H](Cc1c[nH]cn1)NC(=O)CN)[C@@H](C)O)C(=O)N[C@@H](CO)C(=O)O", "target": "WWOX Y85W WW2 domain Y85W", "assay": "binding, ITC", "setting": "pH 7.0, 25 °C", "measurement": "ΔG", "result": "-4.38 ± 0.05 kcal/mol"}
{"Molecule": "COc1c(-c2ccc(O)cc2)oc2c(OC)c(O)cc(O)c2c1=O", "target": "MAL12", "assay": "enzyme activity, inhibitor, absorbance", "setting": "25 µM", "measurement": "inhibition", "result": "96.3%"}
{"Molecule": "C=C1c2cccc(O)c2C(=O)C2=C(O)[C@]3(O)C(=O)C(C(N)=O)=C(O)[C@@H](N(C)C)[C@@H]3[C@@H](O)[C@H]12", "target": "Alpha-synuclein, oligomers (SNCA, Homo sapiens, UniProt P37840)", "assay": "oligomer-vesicle binding, FIDA", "setting": "5 µM, together with: 150 nM oligomers, 50 µM DOPG liposomes", "how to read": "reference: untreated", "measurement": "reduction in bound oligomers", "result": "15 to 20%"}
{"Molecule": "COC(=O)c1scc(C)c1NC(=O)C(C)N1CCCCC1 (stereo not shown)", "target": "SCN9A", "assay": "cell membrane chromatography", "how to read": "higher = stronger binding", "measurement": "capacity factor k′", "result": 10.6}
{"Molecule": "CN(C)c1ccc(-c2ccc3ncnc(Nc4ccccc4)c3c2)cc1", "target": "ERBB2 (Homo sapiens, UniProt P04626)", "assay": "inhibitor", "test system": "MCF7", "measurement": "complete inhibition concentration", "result": "~20 µM"}
{"Molecule": "CC(C)C[C@@H](N)[C@H](O)C(=O)N[C@H](C(=O)N[C@H](C(=O)N[C@@H](CC(=O)O)C(=O)O)C(C)C)C(C)C", "target": "Glutamyl aminopeptidase (Enpep, Rattus norvegicus, UniProt P50123)", "assay": "inhibitor, MALDI-TOF MS", "test system": "isolated rat glomeruli", "setting": "100 µM, 60 min, 37 °C, together with: ANG-I 1 µM", "measurement": "ANG-(1-7) formation", "result": "33.1 ± 2.9 pg/glomerulus"}
{"Molecule": "O=C(O)c1ccccc1Nc1cccc(C(F)(F)F)c1", "target": "Trpm8 (Mus musculus, UniProt Q8R4D5)", "assay": "ion current, two-electrode voltage clamp", "test system": "Xenopus oocytes", "setting": "100 µM, -100 mV, together with: menthol 100 µM", "measurement": "inhibition", "result": "30%"}
{"Molecule": "CC(C)C[C@H](NC(=O)[C@@H](NC(=O)[C@@H](N)[C@@H](C)O)C(C)C)C(=O)N1CCC[C@H]1C(=O)N1CCC[C@H]1C(=O)N1CCC[C@H]1C(=O)N[C@@H](C)C(=O)N[C@@H](Cc1ccc(O)cc1)C(=O)N[C@@H](CCCNC(=N)N)C(=O)N[C@@H](Cc1c[nH]cn1)C(=O)N[C@@H](CCCNC(=N)N)C(=O)N[C@@H](CC(N)=O)C(=O)O", "target": "WW domain-containing oxidoreductase, WW1 domain (WWOX, Homo sapiens, UniProt Q9NZC7)", "assay": "binding to WW1 domain, isothermal titration calorimetry", "setting": "pH 7.0, 25 °C", "measurement": "binding free energy ΔG", "result": "-4.84 ± 0.08 kcal/mol"}
{"Molecule": "CCN1C(=O)c2ccccc2[S+]([O-])c2ccc(C(=O)N(C)Cc3ccc(OC)cc3)cc21 (stereo not shown)", "target": "DRD2 (Homo sapiens, UniProt P14416)", "assay": "calcium mobilization, antagonist", "test system": "HEK293 T-REx D2 Gqi5", "setting": "up to 77 µM", "measurement": "AC50", "result": "inactive"}
{"Molecule": "CCOCc1ccc(C=O)o1", "target": "Hemoglobin subunit alpha, with sickle beta chain (HBA1, Homo sapiens, UniProt P69905)", "assay": "oxygen affinity", "test system": "sickle red cell lysate", "setting": "2 mM", "how to read": "reference: untreated", "measurement": "P50 change", "result": "39.8 ± 0.8%"}
{"Molecule": "COCCN(CCOC)C(C)C(=O)Nc1c(C)csc1C(=O)OC (stereo not shown)", "target": "SCN9A", "assay": "cell membrane chromatography", "how to read": "higher = stronger binding", "measurement": "capacity factor k′", "result": 14}
{"Molecule": "CCCCCCCCCCCCCCCCOc1ccc(/C=C/C(O)=C/C(=O)/C=C/c2ccc(O)c(OC)c2)cc1OC", "target": "Protein kinase C delta type, C1B domain (Prkcd, Mus musculus, UniProt P28867)", "test system": "buffer", "setting": "5×1 µM, 1 h, 25 °C, protein excess", "measurement": "emission maximum", "result": "560 nm"}
{"Molecule": "COc1cc(-c2cnc3c(N4CCOCC4)snc3c2)cc(OC)c1OC", "target": "panel of 456 kinases", "assay": "DiscoverX scan", "setting": "10 µM, below 10% of control", "measurement": "number of kinases bound", "result": 7}
{"Molecule": "COc1ccc(OCC2c3cc(OC)c(OC)cc3CCN2C(=O)c2cccc(Cl)c2)cc1 (stereo not shown)", "target": "Glutamate receptor ionotropic, NMDA 2D, with NR1 (Rattus norvegicus, UniProt Q62645)", "assay": "NR1/NR2D channel, single channel recording", "setting": "10 µM", "how to read": "reference: control", "measurement": "open probability", "result": "190%"}
{"Molecule": "O=C1c2c(O)cc(O)cc2O[C@H](c2cc(O)c(O)c(O)c2)[C@H]1O", "target": "GABA-A receptor benzodiazepine site (rat)", "assay": "[3H]flunitrazepam binding, inhibitor", "test system": "rat cortex membranes", "measurement": "lowest inhibitory concentration", "result": "0.3 µM"}
{"Molecule": "CC[C@H](C)[C@H](NC(=O)[C@@H]1CCCN1C(=O)[C@@H]1CCCN1C(=O)[C@@H]1CCCN1C(=O)[C@@H](NC(=O)[C@H](CC(N)=O)NC(=O)[C@@H](N)Cc1ccccc1)[C@@H](C)CC)C(=O)N[C@@H](Cc1ccc(O)cc1)C(=O)N[C@H](C(=O)N[C@@H](CO)C(=O)N[C@@H](CCCNC(=N)N)C(=O)N[C@@H](C)C(=O)O)[C@@H](C)O", "target": "WWOX Y85W WW2 domain Y85W", "assay": "binding, ITC", "setting": "pH 7.0, 25 °C", "measurement": "ΔG", "result": "-4.33 ± 0.11 kcal/mol"}
{"Molecule": "CSc1ccc(/C=C2/C(C)=C(CC(=O)O)c3cc(F)ccc32)cc1", "target": "PDE2A (Homo sapiens, UniProt O00408)", "assay": "cAMP hydrolysis, inhibitor, IMAP fluorescence polarization", "setting": "up to 200 µM", "measurement": "IC50", "result": "inactive"}
{"Molecule": "CC(=O)N[C@@H]1[C@@H](O)[C@H](O[C@@H]2O[C@H](CO)[C@@H](O[C@@H]3O[C@H](CO[C@H]4O[C@H](CO)[C@@H](O)[C@H](O)[C@@H]4O)[C@@H](O)[C@H](O[C@H]4O[C@H](CO)[C@@H](O)[C@H](O)[C@@H]4O)[C@@H]3O)[C@H](O)[C@H]2NC(C)=O)[C@@H](CO)O[C@H]1NC(=O)C[C@H](N)C(=O)O", "target": "NT1 (Nicotiana tabacum, UniProt Q94EW1)", "assay": "glycan binding, glycan array", "setting": "together with: Alexa 488-labelled lectin 150 µg/mL", "measurement": "fluorescence", "result": "18600 RFU"}
{"Molecule": "CC1=C(C(=O)OCc2ccccc2)C(c2ccc(-c3ccccc3C)cc2)N(Cc2ccc(-c3nnn[nH]3)cc2)C(=S)N1 (stereo not shown)", "target": "HSPA1A (Homo sapiens, UniProt P0DMV8)", "assay": "ATPase activity, inhibitor", "setting": "100 µM, without Hsp40", "how to read": "reference: DMSO, negative means inhibition", "measurement": "fold change in activity", "result": "-1.3 fold"}
{"Molecule": "COc1cc2c(=O)c(OC)c(-c3ccccc3)oc2c(O)c1OC", "target": "MAL12", "assay": "enzyme activity, inhibitor, absorbance", "setting": "100 µM", "measurement": "inhibition", "result": "96.8%"}
{"Molecule": "CC(C)(C)OC(=O)OCc1ccc(C=O)o1", "target": "Hemoglobin subunit alpha, with beta chain (HBA1, Homo sapiens, UniProt P69905)", "assay": "measured: haemoglobin A adduct", "test system": "human normal whole blood", "setting": "2 mM, 24 h, hematocrit 30%", "measurement": "peak modification", "result": "25.1%"}
{"Molecule": "COc1ccc(-c2cc(=O)c3c(O)cc(OC)cc3o2)cc1", "target": "MAL12", "assay": "enzyme activity, inhibitor, absorbance", "setting": "250 µM", "measurement": "inhibition", "result": "52%"}
{"Molecule": "Cc1ccc(NC(=O)N2CCN(c3ccnc(Nc4ccc(Cl)cc4)n3)[C@@H](C)C2)cc1", "target": "MAL12", "assay": "enzyme activity, inhibitor", "test system": "Saccharomyces cerevisiae", "setting": "together with: p-nitrophenyl glucoside substrate", "how to read": "reference: S over R enantiomer", "measurement": "activity ratio", "result": "~3 fold"}
{"Molecule": "CC(C)S[C@@H]1O[C@H](CO)[C@H](O)[C@H](O)[C@H]1O", "target": "lecA (Pseudomonas aeruginosa, UniProt Q05097)", "assay": "isothermal titration calorimetry", "setting": "pH 7.5, 25 °C, together with: 25 mM CaCl2", "measurement": "ΔG", "result": "-6.1 ± 0.1 kcal/mol"}
{"Molecule": "BzATP", "target": "P2X purinoceptor 7 (P2rx7, Rattus norvegicus, UniProt Q64663)", "assay": "ion current, whole-cell patch clamp", "test system": "HEK293, transfected", "setting": "together with: after agonist washout, Ca2+ medium", "measurement": "decay time constant τ2", "result": "14.9 ± 1.1 s"}
{"Molecule": "Nc1ccc(C=CC(=O)O)cc1", "target": "Peptidylglycine alpha-amidating monooxygenase, PHM domain (Pam, Rattus norvegicus, UniProt P14925)", "assay": "inactivator", "setting": "pH 6.0, 37 °C, together with: 5.0 mM ascorbate", "measurement": "kinact", "result": "0.0005 ± 8.33e-05 s⁻¹"}
{"Molecule": "KACESRCTKLEYDPR", "target": "human IgE", "assay": "peptide microarray", "test system": "peptide, peanut-allergic patient sera", "setting": "concentration not given, 16 h, 4 °C", "measurement": "patients with IgE binding", "result": "50%"}
{"Molecule": "O=c1c2ccccc2[se]n1-c1ccccc1", "target": "Alpha-methylacyl-CoA racemase (AMACR, Homo sapiens, UniProt Q9UHK6)", "assay": "enzyme activity", "setting": "100 µM, together with: thiol reagents TBP and iodoacetamide", "how to read": "reference: untreated", "measurement": "remaining activity", "result": "~50%"}
{"Molecule": "O=c1c(O)c(-c2ccc(O)c(O)c2)oc2cc(O)ccc12", "target": "Kcnh1 (Mus musculus, UniProt Q60603)", "assay": "inside-out patch clamp", "test system": "Xenopus oocytes", "setting": "10 µM", "measurement": "V1/2 shift", "result": "-9.6 ± 1.9 mV"}
{"note": "Excerpt of the above:"}
{"Molecule": "CCCCCCCCC(=O)N(C)[C@H]1CNC1=O", "target": "NAAA (Homo sapiens, UniProt Q02083)", "assay": "enzyme activity, inhibitor, fluorogenic PAMCA hydrolysis", "setting": "pH 4.5, together with: 5 µM PAMCA", "measurement": "IC50", "result": "inactive"}
{"Molecule": "CSCC[C@H](NC(=O)[C@@H]1CCCN1C(=O)[C@@H](NC(=O)[C@H](Cc1ccc(O)cc1)NC(=O)[C@H](C)NC(=O)[C@@H]1CCCN1C(=O)[C@@H]1CCCN1C(=O)[C@@H]1CCCN1C(=O)[C@H](CO)NC(=O)[C@H](Cc1c[nH]cn1)NC(=O)CN)[C@@H](C)O)C(=O)N[C@@H](CO)C(=O)O", "target": "WWOX Y85W WW2 domain Y85W", "assay": "binding, ITC", "setting": "pH 7.0, 25 °C", "measurement": "ΔG", "result": "-4.38 ± 0.05 kcal/mol"}
{"Molecule": "COc1c(-c2ccc(O)cc2)oc2c(OC)c(O)cc(O)c2c1=O", "target": "MAL12", "assay": "enzyme activity, inhibitor, absorbance", "setting": "25 µM", "measurement": "inhibition", "result": "96.3%"}
{"Molecule": "C=C1c2cccc(O)c2C(=O)C2=C(O)[C@]3(O)C(=O)C(C(N)=O)=C(O)[C@@H](N(C)C)[C@@H]3[C@@H](O)[C@H]12", "target": "Alpha-synuclein, oligomers (SNCA, Homo sapiens, UniProt P37840)", "assay": "oligomer-vesicle binding, FIDA", "setting": "5 µM, together with: 150 nM oligomers, 50 µM DOPG liposomes", "how to read": "reference: untreated", "measurement": "reduction in bound oligomers", "result": "15 to 20%"}
{"Molecule": "COC(=O)c1scc(C)c1NC(=O)C(C)N1CCCCC1 (stereo not shown)", "target": "SCN9A", "assay": "cell membrane chromatography", "how to read": "higher = stronger binding", "measurement": "capacity factor k′", "result": 10.6}
